Published values of several laboratories.
Every numbered part comes from another study and shows a few of its results, in no order. Changes are numbered by the printed parent chain.

Study 1
Target: CREB3L3, bZIP domain (human)
Method: DHFR protein complementation
Medium: yeast
Setting: single substitutions, most at no-binding floor
Baseline: wild-type JUN-FOS pair
Reading: higher = stronger binding
Parent: JUN, bZIP domain (human); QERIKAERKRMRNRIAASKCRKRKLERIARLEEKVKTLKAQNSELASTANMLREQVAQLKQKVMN; partner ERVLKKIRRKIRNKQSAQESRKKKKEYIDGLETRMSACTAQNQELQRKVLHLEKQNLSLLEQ
`R30G` gave a binding fitness of -1.41 natural log.
With `K39C` the binding fitness was -1.4 natural log.
For `A29R`, the binding fitness was -1.45 natural log.
For `E44Q`, the binding fitness was -1.45 natural log.
`A40T` has a binding fitness of -1.37 natural log.
With `Q55N` the binding fitness was -1.47 natural log.
With `R30L` the binding fitness was -1.39 natural log.
With `A57Q` the binding fitness was -1.49 natural log.
With `E54S` the binding fitness was -1.27 natural log.
With `S47C` the binding fitness was -1.49 natural log.
The binding fitness of `I28R` is reported as -1.44 natural log.
With `E44I` the binding fitness was -1.56 natural log.
`R53V` has a binding fitness of -1.44 natural log.
For `V35Q`, the binding fitness was -1.47 natural log.
`I28C` has a binding fitness of -1.43 natural log.

Study 2
Target: Ras GTPase-activating protein-binding protein 1, RRM domain (G3BP1, Homo sapiens, UniProt Q13283)
Sequence of UniProt Q13283 (whole entry, looked up): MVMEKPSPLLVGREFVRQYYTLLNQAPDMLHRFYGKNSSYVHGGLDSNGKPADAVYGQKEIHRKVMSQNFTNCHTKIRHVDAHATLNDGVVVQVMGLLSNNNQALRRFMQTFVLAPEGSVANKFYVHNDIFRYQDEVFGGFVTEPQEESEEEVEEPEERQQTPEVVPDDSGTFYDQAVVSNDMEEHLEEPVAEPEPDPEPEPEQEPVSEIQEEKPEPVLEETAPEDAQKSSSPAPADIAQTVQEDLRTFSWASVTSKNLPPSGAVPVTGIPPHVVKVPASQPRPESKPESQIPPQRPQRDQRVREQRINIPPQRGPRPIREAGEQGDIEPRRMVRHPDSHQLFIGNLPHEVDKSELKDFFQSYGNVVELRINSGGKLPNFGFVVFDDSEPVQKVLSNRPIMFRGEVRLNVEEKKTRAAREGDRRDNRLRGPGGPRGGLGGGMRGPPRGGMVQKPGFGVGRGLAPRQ
Method: RNA Bind-n-Seq
Form: RNA
Medium: in vitro
Concentration: 1 µM
Setting: whole 134-nt RNA, ends assumed
With: 150 mM KCl
Baseline: input library
Reading: higher = stronger binding
The log2 enrichment of `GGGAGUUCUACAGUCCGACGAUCGAAGGAAGUAAAAACAAAUGGAAAUGCUUCGGAUAGUGGCAGGGGUGGGGGUUGCUAAGGAAAGGGUGGGAUGGGAGUGGGUAAAGAGUUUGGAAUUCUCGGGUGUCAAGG` is reported as 1.22.
For `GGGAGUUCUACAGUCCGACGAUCUUCCAACAGUUAUGGGAUCCCAGAACCUGCUCAUGCAUACGCUCAACCUCAGACCACAACUCCUCUACCUGCAGUUUCCGGUUCUCCUGGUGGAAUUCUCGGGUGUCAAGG`, the log2 enrichment was -0.0115.
`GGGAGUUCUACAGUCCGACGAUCAAGUCCUGUGCUACACAUCGUAUGUACCGAAUCGGGAAAAAGGGUUUGGGUUUGGGAAAGUAUUAUGUUACGCCGUUCGGAUCUGCACUUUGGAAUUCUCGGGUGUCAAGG` gave a log2 enrichment of 0.519.
`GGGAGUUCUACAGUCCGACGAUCCAAGUCCUGUGCUACACAUCGUAUGUACCGAAUCGGGAGGGUUUUUUUGGGUGGGAAAGUAUUAUGUUACGCCGUUCGGAUCUGCACUUCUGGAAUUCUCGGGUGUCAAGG` gave a log2 enrichment of 0.547.
With `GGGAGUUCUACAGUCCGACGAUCAGUCCUGUGCUACACAUCGUAUGUACCGAAUCGGGUGGGUUUUUUUGGGUUUUUGGGAAAGUAUUAUGUUACGCCGUUCGGAUCUGCACUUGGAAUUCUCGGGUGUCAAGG` the log2 enrichment was 0.299.
With `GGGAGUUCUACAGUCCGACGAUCAGUCCUGUGCUACACAUCGUAUGUACCGAAUCGGGGAGGGGAGGGGUUUUUUUGGGGAAAGUAUUAUGUUACGCCGUUCGGAUCUGCACUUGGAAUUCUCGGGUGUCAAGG` the log2 enrichment was 1.01.
For `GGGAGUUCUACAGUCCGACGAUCCACAGACAACACGCACUCACACAGACACAGAGGGAAGGGGUUGGGAUGGGGACAGGGUGCACAGCAGGGCGGGGUAGGACCCCAGCCCCUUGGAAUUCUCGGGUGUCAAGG`, the log2 enrichment was 0.0907.
The log2 enrichment of `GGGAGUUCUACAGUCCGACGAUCCACAGACAACACGCACCCACACAGACACAGAGGGAAGGGGUUGGGAUGGGGACACGGUGCACAGCAGGGCGGGGUAGGACCCCAGCCCCUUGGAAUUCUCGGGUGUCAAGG` is reported as -0.0987.
With `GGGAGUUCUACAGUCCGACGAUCACCAUGCAGGUGGGCAUCUUUGGGAAGUGGGGCAAGGGGGGGAUAGGGAGGGGGGUAACACUUUGGGAAGAGGUGGUCCCAGGUCGUUUCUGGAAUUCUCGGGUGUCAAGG` the log2 enrichment was 0.622.
The log2 enrichment of `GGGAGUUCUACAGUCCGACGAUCUGGGAGGUGGAUUUUGUUUAUUUUUUUAGCUCAUUUCCAGGGGUGGGAAUUUUUUUUUAAUAUGUGUCAUGAAUAAAGUUCUUUUUGAAAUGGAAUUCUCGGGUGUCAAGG` is reported as 2.27.

Study 3
Target: CCNB2, cyclin fold, Cln2 fusion (human)
Method: yeast growth competition, sequencing
Medium: yeast
Setting: strong parent motif
Baseline: not given
Reading: higher = stronger binding
Parent: CUX1 docking peptide (human); SRIRRELFIEEIQ
Under “normalised enrichment score”, `SRIRRELLIEEIQ [F8L]` is recorded as 1.
`SRIRREAFIEEIQ [L7A]` — result for “normalised enrichment score”: 0.126.
`SRIRRELFIAEIQ [E10A]` — result for “normalised enrichment score”: 0.747.
`SRIRRALFIEEIQ [E6A]` — result for “normalised enrichment score”: 0.756.
`SRIRRELFIEAIQ [E11A]`: “normalised enrichment score” 0.837.
Under “normalised enrichment score”, `SRIRRELAIEEIQ [F8A]` is recorded as 0.445.
Under “normalised enrichment score”, `SRIRRELFIEEIA [Q13A]` is recorded as 0.356.

Study 4
Target: RING finger protein unkempt homolog, zinc fingers 1-6, GST-SBP tag (UNK, Homo sapiens, UniProt Q9C0B0, residues 30-357)
Method: RNA Bind-n-Seq
Form: RNA
Medium: in vitro
Concentration: not given
Setting: RNA with constant flanks, human and mouse sites, ends assumed
Baseline: input RNA pool
Reading: higher = stronger binding
Residues (chain): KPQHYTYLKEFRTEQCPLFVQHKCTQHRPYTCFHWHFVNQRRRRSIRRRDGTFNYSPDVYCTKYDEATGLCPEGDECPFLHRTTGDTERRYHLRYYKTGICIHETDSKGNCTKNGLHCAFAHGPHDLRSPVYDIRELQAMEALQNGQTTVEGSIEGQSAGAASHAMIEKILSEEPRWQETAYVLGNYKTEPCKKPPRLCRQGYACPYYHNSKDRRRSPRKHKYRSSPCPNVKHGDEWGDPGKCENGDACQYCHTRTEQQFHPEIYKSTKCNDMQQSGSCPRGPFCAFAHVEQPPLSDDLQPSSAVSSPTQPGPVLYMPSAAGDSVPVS
`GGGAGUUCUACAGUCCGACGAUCAAGCCAAUUCAGAACUUCAUUGAAACUGACACUACAGAAGCUGUAGGAAAUGUAUGUCAGCUAGCACAAGCAGAGCACAUAUUAAAAUCCUGUCCAUUUCGGAGCCCUAUUCCAAUCUGGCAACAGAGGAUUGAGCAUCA` has a bound/input enrichment of 0.314 ratio.
With `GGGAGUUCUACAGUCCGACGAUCGAUUGUUGAAUUGCCAAAGAGUUUGGUUCACGAGCUGAAGCUCCCAUUCCAUGGAUCCCUUGGGUGCACCUUCCCAGUUUGUGGAUGUGGAUACCCUGCUAAGCUGGGGCGACUCGUACGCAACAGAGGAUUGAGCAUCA` the bound/input enrichment was 0.263 ratio.
`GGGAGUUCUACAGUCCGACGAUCUGUACAAAUCCUAUAACACCUCUUUGUACACAACCUGACCAGGUUAUUAAAGGGGGUGCUAGUAUUAUUCAGUGCCACAUUCUUAAUGAUAAGAGACAUAUAUUAACCAAAGAUACCAAUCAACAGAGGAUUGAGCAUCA` has a bound/input enrichment of 2.42 ratio.
`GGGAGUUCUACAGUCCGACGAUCGAUUUCUGUACUCUGAUAUCCAUCAAAGUGCAUAACAUAGUACUCAUGAUGCAAGUUACUGUGACAACAACAUACUUUGGCCACUCUGAACAGAUAUCCCAGGAGAGGUAUCAGUAUGUCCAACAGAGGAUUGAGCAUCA` has a bound/input enrichment of 0.172 ratio.
`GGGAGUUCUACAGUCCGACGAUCUGGCAGCUGGCUUCUUUGGCUCGUUAUUAUGUCUGUGAGAUUUAUUCAUGUUGCUGUGCGUAGUAUAGUUUGUGCAUGUUCAUUGCUAAAAACUUCCAUUGUUUGGCUGUAUCGUAGUUCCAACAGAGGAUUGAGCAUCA` gave a bound/input enrichment of 0.637 ratio.
With `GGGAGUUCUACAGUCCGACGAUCAGUCUUAAAAGACCCUGGGAAGAUGAUCCUCCAAAUGUACAUAUUAUUGGAAAUCUGCCUUUUAGUGUUUCAACUCCACUGAUUAUCAAGUGGCUUGAAAAUAUUUCCUGUAGAGAUGGACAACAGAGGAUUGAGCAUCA` the bound/input enrichment was 1.25 ratio.
The bound/input enrichment of `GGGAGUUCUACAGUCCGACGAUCGUUUUUGGCUGCAAUUGCAUGAAAUCCCAAUGGUGUAGACCAGUGGCGAUGGAUCUAGGAGUUUACCAACUGAGACAUUUUUCAAUUUCUUUCUUGUCAUCCUUGCUGGGGACUGAAAACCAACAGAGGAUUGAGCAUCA` is reported as 0.463 ratio.
`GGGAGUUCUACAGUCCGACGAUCAAAGAAAAUGGAGAUGUAAAGAUUUUACUGAAAAGUGGGAAGGAGAAACCAAAAACAAAUAUAGAAGACUUACAAAUUAAAAAAGUAAAGAAGAAAAAGAAAAAGAAACACAAAGAGAAUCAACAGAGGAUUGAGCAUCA` gave a bound/input enrichment of 14.6 ratio.
The bound/input enrichment of `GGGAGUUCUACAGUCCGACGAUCGGCGGCCGGCGCUACAUGAUGAUCGUGGAUCCUGCCAUCAGCAGCUCGGGCCCUGCCGGGAGCUACAGGCCCUACGACGAGGGUCUGCGGAGGGGGGUUUUCAUCACCAACGAGACCGGCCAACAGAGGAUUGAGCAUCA` is reported as 0.0949 ratio.
`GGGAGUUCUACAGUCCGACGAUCUGCCUUGCUUUCCACCCAACAGAACAGAUCCUGGCUUCUGGUUCAAGGGAUUAUACUCUUAAAUUAUUUGAUUAUUCCAAACCAUCAGCAAAAAGAGCCUUCAAAUACAUUCAGGAAGCUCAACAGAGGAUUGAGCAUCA` gave a bound/input enrichment of 0.392 ratio.
The bound/input enrichment of `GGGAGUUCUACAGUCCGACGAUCCUCUGUAGACAUAAGCAGUUCUAGCAUGAAGGGACGCACCAAUGUGAGAAAACUGAGCCUGUUUAUAUUAAAACAAAACAAAAAAACAGUAAGGAUGAGCUCUGUUCACUUGGAUUAAUGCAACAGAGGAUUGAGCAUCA` is reported as 0.29 ratio.

Excerpt of the above (study 3):
Under “normalised enrichment score”, `SRIRRELFIEEIA [Q13A]` is recorded as 0.356.
`SRIRREAFIEEIQ [L7A]` — result for “normalised enrichment score”: 0.126.
Under “normalised enrichment score”, `SRIRRELLIEEIQ [F8L]` is recorded as 1.
